Measurements pooled from the literature.
Lines come from different studies, so protocols differ. “And” joins repeats or separate records; there may be more than shown.

Compound	assay	test system	conditions	how to read	measurement	value
[Cl-].[Cl-].[Ru+2].c1cnc2c(c1)ccc1cccnc12.c1cnc2c(c1)ccc1cccnc12.c1csc(-c2ccc(-c3ccc(-c4ccc(-c5nc6c7cccnc7c7ncccc7c6[nH]5)s4)s3)s2)c1	–	air-saturated acetonitrile	–	–	singlet oxygen quantum yield	~88%
O=C(O)CCC(=O)O.[2H]C([2H])([2H])Oc1cc(C)c2[nH]ccc2c1CN1CC[C@@H](C2CC2)C[C@H]1c1ccc(C(=O)O)cc1	EIA, refers to: complement fragment Bb	human, plasma	125 mg twice daily, multiple ascending dose	–	maximum inhibition	48.8%
CCCCOc1nc(N)c2c(n1)N(Cc1cccc(CN3CCCC3)c1)CC(=O)N2	–	human, blood	dose not given, 12 h, COBI	–	TLR7 mRNA level	increased
NC(=O)c1cnc2[nH]ccc2c1N[C@@H]1[C@@H]2CC3C[C@H]1C[C@@](O)(C3)C2	flow cytometry, refers to: regulatory T cells	Japanese healthy subjects, peripheral blood	oral, 100 mg twice daily, day 7	–	change from baseline	-0.68%
Cc1noc(C)c1-c1cc(C(O)(c2ccccn2)c2ccccn2)c2nc(C3CC3)[nH]c2c1	refers to: CCR2 expression	human, peripheral blood	4 mg, day 8, 1599 study	–	maximum inhibition	57.6%
O=C(OC(C(F)(F)F)C(F)(F)F)N1CCN(Cc2cccc(Oc3ccccc3)c2)CC1	PET blocking study	rhesus monkey, brain HIP	0.3 mg/kg, compound pretreatment, with: [18F]T-401 tracer	–	k3	1.68 min⁻¹
O=[N+]([O-])c1c(NC2CS(=O)(=O)c3ccccc32)nc2ccccn12 (centres unmarked)	CoA-CPM signal reduction, CPM fluorescence thiol	cell-free biochemical	assay interference counter-screen, with: CoA replacing acetyl-CoA	–	IC50	> 125 µM
Cc1cc(Nc2cc3ncccc3c(N[C@@H]3C[C@H]4CC[C@@H](C3)N4CCC#N)n2)n[nH]1	–	moderate-severe ulcerative colitis patients	80 mg, day 28, unit not given	relative to: baseline	change in partial Mayo	-1.3
Cn1c(SC2=CS(=O)(=O)c3ccccc32)nc2ccccc21	CoA-CPM signal reduction, CPM fluorescence thiol	cell-free biochemical	assay interference counter-screen, with: CoA replacing acetyl-CoA	–	IC50	> 125 µM
OC(CCN1CCCCC1)(c1ccccc1)C1CC2C=CC1C2 (centres unmarked)	resting-state EEG	healthy elderly humans	oral, 2 mg, eyes closed, LS mean	–	EEG Beta1-power Fz-Cz	2.9 µV²
C=CC(=O)N1CCC(c2ccc(C(N)=O)c(-c3ccc(Oc4ccccc4)cc3)n2)CC1	tumour response, Lugano classification	patients with relapsed/refractory MCL	investigator assessed, 10.5 months follow-up	–	PR	51.9%
CSc1ccc(C(=O)/C=C/c2cc(C)c(OC(C)(C)C(=O)O)c(C)c2)cc1	–	C57BL/6 mice, WD/CCl4 MASH model	oral, 30 mg/kg daily, 4 weeks	relative to: model group	NAS score	decreased
C[C@H](Oc1ccc(Br)cc1-c1ccon1)C(=O)O	last response peak	human, tibialis anterior muscle	100 mg, 15 Hz, single ascending dose	–	difference from placebo	8.5%
COc1ccc(-c2cncc(N[C@@H](C)c3cccc(NC(=O)c4cncc(C)c4)c3)n2)cc1OC	refers to: rno-miR-342-3p	rat SU5416/hypoxia model, lung	dose not given	relative to: SU5416/hypoxia vehicle	fold change	0.8
CN(C)C(=O)c1cc2cnc(Nc3ccc(N4CCNCC4)cn3)nc2n1C1CCCC1	RNA-seq GSEA, refers to: HALLMARK_ESTROGEN_RESPONSE_EARLY gene set	MB002 tumour	concentration not given	relative to: vehicle, direction not given	enrichment score	0.233
CC(C)[C@H](C(=O)Nc1ccc(C(=O)NO)cc1)c1ccccc1	volumetric MRI	human	dose not given, 995 days	–	tumour volume change	5.38%
Cc1c(Cl)cccc1NC(=O)N1CCCN(c2nc(-c3ccccc3)ns2)CC1	CoA-CPM signal reduction, CPM fluorescence thiol	cell-free biochemical	assay interference counter-screen, with: CoA replacing acetyl-CoA	–	IC50	> 125 µM
CO[C@@H]1[C@@H](OC(N)=O)[C@@H](O)[C@H](Oc2ccc3c(O)c(NC(=O)c4ccc(O)c(CC=C(C)C)c4)c(=O)oc3c2C)OC1(C)C	–	Brca1 cc/cc MEFs, mouse	50 µM	–	colony survival	88.5% and 84.8% and 80.7% and 91.3% and 75.3%
CC(C)n1c(C2CCNCC2)nc2c([N+](=O)[O-])c(Br)c(Br)cc21	–	FLT3-mutated AML patients, bone marrow blasts	all dose levels	–	cycles to maximum reduction	5 cycles
C[C@H]1C[C@H]2CSC(N)=N[C@@]2(c2nc(NC(=O)c3ccc(OC(F)F)cn3)cs2)CO1	refers to: Aβ1-40	healthy adults, plasma	125 mg once daily, day 1	relative to: placebo	percent change from baseline	-87.7%
CCc1c(C)nc(-c2ccc(Cl)s2)nc1Nc1ccc(CC(=O)O)cc1	–	C57BL/6J mice, high-fat diet	intraperitoneal, 0.3 mg/kg daily, 60% fat diet 12 weeks, dosed last four	relative to: vehicle	fed blood glucose	decreased
CCCC(CCC)C(=O)Oc1cccc(C(O)CCN)c1.O=CO (centres unmarked)	OCT at 500 µm from nerve head	Abca4-/-Rdh8-/- mice, photic damage	oral, 50 mg/kg, 7 days, with: 10,000 lx light, 30 min	–	ONL thickness	16.9 µm and 23.1 µm and 51.7 µm and 32.7 µm and 20.3 µm and 56.9 µm
CO[C@H]1CC[C@H](N2C(=O)CNc3ncc(-c4ccc(C(C)(C)O)nc4)nc32)CC1	flow cytometry	stimulated B cells, human, blood	45 mg single dose, 3 h, median	relative to: baseline	pS6RP change from baseline	-79.8%
Cc1cc(C)nc(SC2=CS(=O)(=O)c3ccccc32)n1	CoA-CPM signal reduction, CPM fluorescence thiol	cell-free biochemical	assay interference counter-screen, with: CoA replacing acetyl-CoA	–	IC50	> 125 µM
Cc1n[nH]c2ccc(-c3cc(OC[C@@H](N)Cc4ccccc4)cnc3-c3ccoc3)cc12	kinase binding, competitor, MIB/MS competition, refers to: KIN3	Candida albicans cell lysate	1 µM	relative to: DMSO	log2 fold change	0.0107

Compound	assay	test system	conditions	how to read	measurement	value
CO[C@H]1C[C@@H]2CC[C@@H](C)[C@@](O)(O2)C(=O)C(=O)N2CCCC[C@H]2C(=O)O[C@H]([C@H](C)C[C@@H]2CC[C@@H](O)[C@H](OC)C2)CC(=O)[C@H](C)/C=C(\C)[C@@H](O)[C@@H](OC)C(=O)[C@H](C)C[C@H](C)/C=C/C=C/C=C/1C	oral glucose tolerance test	healthy adult horses	dose not given, 120 min, baseline before treatment	–	blood glucose	163 mg/dL
Cc1ccc([C@@H]2O[C@H](CO)[C@@H](O)[C@H](O)[C@H]2O)cc1Cc1ccc(-c2ccc(F)cc2)s1	–	Japanese type 2 diabetes patients	100 mg, day 1	relative to: day 0	change, mean 24 h, plasma glucose	-19 mg/dL
Cc1cccc(Nc2nc(-c3ccccc3)no2)c1	CoA-CPM signal reduction, CPM fluorescence thiol	cell-free biochemical	assay interference counter-screen, with: CoA replacing acetyl-CoA	–	IC50	> 125 µM
Cn1cc(Nc2nccc(-c3ccc4c(c3)CN(C3COC3)CC[C@H]4NC(=O)c3cn(C(C)(C)C)nn3)n2)cn1	refers to: Cardiac β-adrenergic Signaling	splenic B cells, Mus musculus	30 mg/kg, with: IgD activation	relative to: vehicle, direction not given	pathway activation z-score	0.905
O=S1(=O)CC(S(=O)(=O)Nc2ccc(Cl)c(Cl)c2)c2ccccc21 (centres unmarked)	CoA-CPM signal reduction, CPM fluorescence thiol	cell-free biochemical	assay interference counter-screen, with: CoA replacing acetyl-CoA	–	IC50	> 125 µM
CC(C)C[C@H](NC(=O)[C@H](CCC1CCCCC1)NC(=O)[C@@H]1C[C@H](C)CN1C(=O)c1ccc(F)cc1)C(=O)NC(C)(C)C(=O)N[C@@H](CC(C)C)C(=O)N[C@@H](CC(C)C)C(=O)NC(C)(C)C(=O)NC(C)(C)C(=O)NCCC(=O)N[C@@H](C)CN(C)C	–	small unilamellar vesicles	concentration not given	–	calcein leakage	30.1%
CC(C)[C@H](NC(=O)[C@H](Cc1ccc(O)cc1)NC(=O)[C@H](Cc1ccc(O)cc1)NC(=O)[C@@H]1CCCN1C(=O)[C@H](CCC(=O)O)NC(=O)[C@H](CCC(=O)O)NC(=O)[C@H](Cc1c[nH]c2ccccc12)NC(=O)[C@@H]1CCCN1C(=O)[C@@H](NC(=O)[C@H](CCC(N)=O)NC(=O)c1ccc2c(c1)C(=O)OC21c2ccc(O)cc2Oc2cc(O)ccc21)C(C)C)C(=O)N[C@H](C(=O)N[C@@H](CCCCN)C(=O)N[C@@H](CCCCN)C(=O)N[C@@H](CO)C(=O)N[C@@H](CO)C(=O)NCC(=O)NCC(N)=O)C(C)C	surgeon confidence in nerve	human head and neck surgery, nerves	500 mg, slightly improved	relative to: white light	share of responses	28.6%
N#Cc1ccn2c(-c3ccncc3)c(-c3ccc(F)cc3)nc2c1	kinase binding, competitor, MIB/MS competition, refers to: CMK2	Candida albicans cell lysate	1 µM	relative to: DMSO	log2 fold change	0.0166
C[C@@H](O)CCOC(=O)C[C@@H](C)O	–	human	oral drink, dose not given, 90 min post dose, median, all participants	–	plasma insulin	620 pg/mL
OCC(O)CO	targeted LC-MS metabolomics	Mus musculus male wild type, liver	drinking water, 5% w/v, 2 days	–	hexose phosphate concentration	1.01 mM and 0.508 mM and 0.722 mM and 0.19 mM
CC(CCc1ccc(O)cc1)NCCc1ccc(O)c(O)c1 (centres unmarked)	–	anaesthetised instrumented rat	iv infusion, 1 µg/kg/min, 5 min, first infusion	relative to: baseline	mean arterial pressure rise	3%
O=C(NC[C@H]1CN(c2ccc(N3CCOCC3=O)cc2)C(=O)O1)c1ccc(Cl)s1	–	human normal renal function, plasma	10 mg, mean, unit not given	relative to: baseline	maximum prothrombin time prolongation	9.55
C=CCn1c(=O)c2cnc(Nc3ccc(N4CCN(C)CC4)cc3)nc2n1-c1ccc2c(n1)[C@@](O)(CC)CC2	–	OVCAR-3 xenograft, NOD/SCID mouse	90 mg/kg once daily, :3	–	tumour growth inhibition	96.1%
CCOCc1nc2c(N)nc3ccccc3c2n1CC(C)(C)O	CD86 expression, flow cytometry	CD20+ B cells in PBMC, human	100 or 1000 nM	–	CD86 induction	increased
CC(=O)Oc1cc2c(s1)CCN(C(C(=O)C1CC1)c1ccccc1F)C2 (centres unmarked)	platelet aggregation, light transmittance aggregometry	human, platelet-rich plasma	dose not given, 15 min, IPA above 90 %, with: TRAP 5 µM	relative to: patients	patients with IPA above threshold	0%
CC(C)NCC(O)c1ccc(O)c(O)c1 (centres unmarked)	–	ventricular cardiomyocytes, C57BL/6 mouse	dose not given, 0.044 s	–	sarcomere length	1.72 µm
O[C@H]1CCCN[C@@H]1CCCn1cnc2c(Cl)c(Cl)ccc21	ELISA, refers to: Pro-C6	healthy human volunteers, serum	intraduodenal, 100 mg twice daily, day 14, multiple ascending dose	–	maximum reduction	10.2%
CN[C@@H]1COc2c(S(=O)(=O)NC(=O)Nc3c4c(cc5c3CCC5)CCC4)cnn2C1	refers to: IL-18	human participants, whole blood ex vivo	900 mg twice daily, multiple doses, 4 h, IL-18, circulating, adjusted for, with: LPS/ATP	relative to: baseline	inhibition	100%
CCCCC1(CCCC)CN(c2ccccc2)c2cc(SC)c(OCC(=O)N[C@@H](C(=O)NCC(=O)O)c3ccccc3)cc2S(=O)(=O)C1	refers to: 7α-hydroxy-4-cholesten-3-one	human, plasma	15 mg once daily, day 2	–	plasma C4	57.7 ng/mL
C[C@@H](NC(=O)N1C(=O)[C@H](Cc2ccnc(N)c2)[C@H]1C(=O)O)C1CCCCC1	–	human, plasma	continuous intravenous infusion, 0.6 mg/kg/h, days 1 to 6 of 5-day infusion, mean	–	maximum prothrombin time	13.2 s
O=C(O)CNC(=O)Cc1ccccc1	–	ventricular cardiomyocytes, C57BL/6 mouse	dose not given, 0.816 s	–	sarcomere length	1.66 µm
Cl.N[C@@H](CC1=CCC(O)(c2nncnn2)C=C1)C(=O)O (some centres unmarked)	iEDDA cycloaddition	aqueous DMSO 25 %	37 °C, with: TCO-OH 22 mM	–	kobs	9 s⁻¹
O=S(=O)(c1ccc2nsnc2c1)N1CCOCC1	CoA-CPM signal reduction, CPM fluorescence thiol	cell-free biochemical	assay interference counter-screen, with: CoA replacing acetyl-CoA	–	IC50	> 125 µM
COc1cc(Nc2ncc3c(n2)-c2ccc(Cl)cc2C(c2c(F)cccc2OC)=NC3)ccc1C(=O)O	–	mouse, NB-1771 neuroblastoma xenograft	10.4 mg/kg	direction not given	median response score	10
O=Cc1c(O)cc(C(F)(F)F)cc1C(F)(F)F	HPLC-MS	–	pH 10.2, with: 50 mM N-α-acetyl-lysine	–	pseudo-first-order rate constant	0 h⁻¹

For quick reference, copied from above:
Compound	assay	test system	conditions	how to read	measurement	value
Cc1cc(C)nc(SC2=CS(=O)(=O)c3ccccc32)n1	CoA-CPM signal reduction, CPM fluorescence thiol	cell-free biochemical	assay interference counter-screen, with: CoA replacing acetyl-CoA	–	IC50	> 125 µM
Cc1n[nH]c2ccc(-c3cc(OC[C@@H](N)Cc4ccccc4)cnc3-c3ccoc3)cc12	kinase binding, competitor, MIB/MS competition, refers to: KIN3	Candida albicans cell lysate	1 µM	relative to: DMSO	log2 fold change	0.0107
CO[C@H]1C[C@@H]2CC[C@@H](C)[C@@](O)(O2)C(=O)C(=O)N2CCCC[C@H]2C(=O)O[C@H]([C@H](C)C[C@@H]2CC[C@@H](O)[C@H](OC)C2)CC(=O)[C@H](C)/C=C(\C)[C@@H](O)[C@@H](OC)C(=O)[C@H](C)C[C@H](C)/C=C/C=C/C=C/1C	oral glucose tolerance test	healthy adult horses	dose not given, 120 min, baseline before treatment	–	blood glucose	163 mg/dL
Cc1ccc([C@@H]2O[C@H](CO)[C@@H](O)[C@H](O)[C@H]2O)cc1Cc1ccc(-c2ccc(F)cc2)s1	–	Japanese type 2 diabetes patients	100 mg, day 1	relative to: day 0	change, mean 24 h, plasma glucose	-19 mg/dL
Cc1cccc(Nc2nc(-c3ccccc3)no2)c1	CoA-CPM signal reduction, CPM fluorescence thiol	cell-free biochemical	assay interference counter-screen, with: CoA replacing acetyl-CoA	–	IC50	> 125 µM
